# Measurements collected from several papers.
# Numbered parts are unrelated; each lists some results of a single study. Substitutions count along the parent as printed.

# Series 1 — method: RNA Bind-n-Seq; form: RNA; matrix: in vitro; tested at: 365 nM; baseline: no-protein control; direction: higher = stronger binding
# Target: RNA binding protein fox-1 homolog 2, RRM domain, GST-SBP tag (RBFOX2, Homo sapiens, UniProt O43251-10, residues 100-194)
# Setting: natural RNA segment, single round, ends assumed
# Target sequence (chain): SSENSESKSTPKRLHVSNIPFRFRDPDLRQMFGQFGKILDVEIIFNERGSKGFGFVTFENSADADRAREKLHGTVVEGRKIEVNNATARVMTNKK
Oligonucleotide,RBNS enrichment (R)
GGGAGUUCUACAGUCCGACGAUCAGUAAGAAUGUUGCAUGUGAGAGAAGGGAUGUGACUGUGGACUCAGAUUGACACACACAGAUUGGUGGAAGAAUAGCUUCAGUCCUCUUCCUUCAUCCCAUAUGUAGGUAUGGAAUUCUCGGGUGCCAA,35.7
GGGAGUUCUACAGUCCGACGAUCAUGUUGUGCUAAGAUAAUGGCCUCCUGCUGCUGCCUAAAUGCUGAAAUGAGGUUGAGAUGUUUUUCAAGGCUAACUUCAUGGACUCACUCUGUUUAGUGACUUAAUUGUAUGGAAUUCUCGGGUGCCAA,0.514
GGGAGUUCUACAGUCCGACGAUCGAGGGAAGGGGCCUGCCUCCCAGGGAGUCAACAUAGAUGUUCCCCAUGAACAGGGAUUUGACUUUGGAGGCCAACCUGGCCUGGCCUCUGCCCUUUAUCUCACACUCCCUUGGAAUUCUCGGGUGCCAA,0.27
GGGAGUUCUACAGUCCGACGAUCCUGUUGGCUCAUUCUAUUUUGACUAAUGUUACAAAGUACUGAAAAAACUGUAGAAUAGAUAUUUUUAAGGCUAUAUGUAGUGUAUGUGUCUUUUAAUAGAUAUAGGCAUCUGGAAUUCUCGGGUGCCAA,0.403
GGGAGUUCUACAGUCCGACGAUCAUUAAUAGUUUUCAAAGGGCCAUUUUUUAAAAUCCUCUGGGCAUUUUCUUUCAGCUGUUUGUUAGUUUUUGCUUUAUUUAAAGCAUAUUUAAGUUAUUUUAAUGUGGUUUUGGAAUUCUCGGGUGCCAA,1.31
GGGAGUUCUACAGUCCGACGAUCUUAAAUAUUAAUCAACUUUCCUUAAAAUAAAUAGCCUCUUAGGUAAAAAUAUAAGAACUUGAUAUAUUUCAUUCUCUUAUAUAGUAUUCAUUUUCCUACCUAUAUUACACUGGAAUUCUCGGGUGCCAA,1.04
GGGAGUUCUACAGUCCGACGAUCCCUGUGAGGGCCUGAAGCUGGGCCAGGGCCCGUCGCAGCGGAGCCCCCUCUCAGCAGCCCACCGGGUCCCUCCAGGCUGCUGCCCGUGCGUGGUCUUUCUCCUCCUUUUCUGGAAUUCUCGGGUGCCAA,0.307
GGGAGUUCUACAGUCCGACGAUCAUACUCUAUGGUAGAACUAAGGCCUUUCCUUUCUUGGCCAAAGUCUUUACCCUAUUUAACCCUUUGUAUAUUUCUGACUGCUCACUGUUCAUAUUAUAGGGGACCAGAUUUGGAAUUCUCGGGUGCCAA,0.423
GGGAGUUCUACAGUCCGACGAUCCAGGGACAGACCUGCUGCCAAGUGAGCCUGAUGGGCCACAGGUGUGCUCUUCUAAAUGGCCUGUGAGCCAGGCUGUGGGAACUCUAGCUGCUGUCAGCCCCUCCUGUAGGUGGAAUUCUCGGGUGCCAA,0.484
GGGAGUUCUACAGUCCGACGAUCUCUGAUUUCUGCAGUUCCCGCCAGCCUCCAACACGGGGACUCUGCCGUAACUGGAAUCUUCAUAGGUCAUAUUGAAAUCUUCAAGGUGACCAUGCCCCACCGGGGUGCUGUGGAAUUCUCGGGUGCCAA,0.205
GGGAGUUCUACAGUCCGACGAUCUUUCAAAUUUUCAUUAAUGUAUAUAGUGCAAAAUACCAUAUUAAAGAGGGGAAUGUGGAGGACUGAAGCUGACAGUUUGGACUUUUCUUUUUGUACUUAAGUCAUGUCUUUGGAAUUCUCGGGUGCCAA,0.632
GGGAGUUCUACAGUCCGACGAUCGCACUUUUGAACAGUCCCACAGUGCACAGGCCAUUUGAAGGAUGUAGAUGGCAGCCCUGGGCUGUCUCUGCUAUGGGGUGACCUUUCUACCUCCACACAAGACCCUGUUGUGGAAUUCUCGGGUGCCAA,0.223

# Series 2 — target: NFE2L1, bZIP domain (human); method: DHFR protein complementation; matrix: yeast; baseline: wild-type JUN-FOS pair; direction: higher = stronger binding
# Setting: single substitutions, most at no-binding floor
# Parent: JUN, bZIP domain (human); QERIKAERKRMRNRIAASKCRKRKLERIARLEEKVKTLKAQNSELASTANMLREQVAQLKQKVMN; partner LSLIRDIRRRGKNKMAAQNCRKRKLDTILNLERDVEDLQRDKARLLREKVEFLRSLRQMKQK
Variant,binding fitness [natural log]
I28N,-1.37
Q55L,-1.54
E54L,-1.55
A57H,-1.15
T48S,-1.43
N42G,-1.46
R53V,-1.3
E32T,-1.26
A49G,-1.45
A57K,-1.5
V35T,-1.24
L45G,-1.49
A29E,-1.58
L38I,-1.17
Q55D,-1.49
K39V,-1.42
L38G,-1.48
V35L,-1.36
L52N,-1.43
Q41C,-1.57
L45P,-1.47
E54G,-1.44
L31T,-1.5
K34E,-1.44
L52W,-1.52

# Series 3 — method: protein binding microarray; form: double-stranded DNA, one strand shown; matrix: in vitro; tested at: not given; baseline: not given; direction: higher = stronger binding
# Target: Histone acetyltransferase KAT6A, both winged helices, GST fusion (KAT6A, Homo sapiens, UniProt Q92794, residues 1-181)
# Setting: 8-mer, flanks averaged, mean of 2 arrays, mostly near background
# Construct (chain): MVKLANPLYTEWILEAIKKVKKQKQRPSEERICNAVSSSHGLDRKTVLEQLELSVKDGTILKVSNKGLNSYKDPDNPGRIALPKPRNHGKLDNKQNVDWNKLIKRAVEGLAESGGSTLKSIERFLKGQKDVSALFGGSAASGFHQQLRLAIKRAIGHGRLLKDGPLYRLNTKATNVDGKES
Oligonucleotide,E-score
TATTCCAA,-0.0908
ATCGACAG,-0.0357
AGAAAAAT,-0.15
GAGGGTGC,-0.127
AGCTTGCC,0.0897
AATCGTTA,0.021
ACTTCGTG,-0.0801
ACCTAGGA,-0.193
AGGGATAA,-0.177
CTCCGACA,-0.0179
CGGCTAAG,0.275
TGCTCCCA,-0.224
CGAGAAGA,-0.0757
CAAGGCCC,-0.043
AATGGCCG,0.215
AACGGGGG,-0.0704
GTTACGCA,0.134
GCATGGGC,-0.074
CAGTGTGC,-0.0483
GTTGCTCA,-0.196
GAGATCTC,0.0297
AATCCGTG,0.147
AGATTAAG,-0.101
CGGGGTAG,0.116
TTGAACAA,-0.00932

# Series 4 — method: RNA Bind-n-Seq; form: RNA; matrix: in vitro; tested at: not given; baseline: input RNA pool; direction: higher = stronger binding
# Target: RING finger protein unkempt homolog, zinc fingers 1-6, GST-SBP tag (UNK, Homo sapiens, UniProt Q9C0B0, residues 30-357)
# UniProt Q9C0B0, sequence (30-357, looked up): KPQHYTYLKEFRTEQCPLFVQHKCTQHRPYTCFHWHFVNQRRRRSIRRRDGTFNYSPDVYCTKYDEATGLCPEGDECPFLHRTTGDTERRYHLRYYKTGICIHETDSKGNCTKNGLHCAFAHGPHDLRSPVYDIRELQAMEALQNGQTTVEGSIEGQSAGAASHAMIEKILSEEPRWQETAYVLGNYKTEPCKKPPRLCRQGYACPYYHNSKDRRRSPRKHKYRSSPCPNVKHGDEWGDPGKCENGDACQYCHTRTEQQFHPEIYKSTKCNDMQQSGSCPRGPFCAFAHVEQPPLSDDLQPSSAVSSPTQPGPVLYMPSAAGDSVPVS
# Setting: RNA with constant flanks, human and mouse sites, ends assumed
Oligonucleotide,bound/input enrichment [ratio]
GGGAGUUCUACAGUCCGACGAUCCCCCCCCCCCCCCCGGCGUCUGGCGACCCAGCGUGGAGCGAGGCCCCGCCGGGGGCGGCCAUGCGGCGGUGACAGGAGCACGGCCGAGACGCACGGGCCCCCCUCGCCCUCUCACCUCCACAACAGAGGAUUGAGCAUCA,1.32
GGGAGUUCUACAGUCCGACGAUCUCCGAAUGAUCGAGUUGUGGCGGGCUUUGAGAUGUCAGAGGAUUUAGCAAAGCAGCUGGCAAGCUACAAAGCUCAGCUCCAGCAAGUUGAAGCUGCAUUAUCUGGAAAUGGAGAAAAUGACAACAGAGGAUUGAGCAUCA,0.241
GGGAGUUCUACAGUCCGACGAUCGGGCCCUGGAAGCUGACGGCGUCCAAGACCCACAUCAUGAAGUCGGCGGAUGUGGAGAAAUUAGCCGAUGAAUUACAUAUGCCAUCUCUCCCUGAAAUGAUGUUUGGAGACAACGUUUUACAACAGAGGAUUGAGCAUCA,0.183
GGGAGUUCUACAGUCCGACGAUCCCUUGUUCACUGGAUUGUCUGGGGUGACUUGGGCUCAUAUCCACAAUAUUUGGUAUACGGUAGUAGGUUGGUGGGGGUGGGGGUGGGGAGCUAGGAUAUAGGGCAGGGAUACAUACAGUUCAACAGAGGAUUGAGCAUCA,25.8
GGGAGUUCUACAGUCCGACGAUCCCAAGUGGACUGUUUCUGGCCUCGAGUCCGCUGCUGCCCAGCAUACACUUCUGGAGCAGCCUUAGUCCUGUCGCCCCACUGAGUCCUGCCAGGCUGCAAGGGCCGAACACACUUUUCCAGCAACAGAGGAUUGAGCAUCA,0.164
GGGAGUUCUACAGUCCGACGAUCGCUGCCAUGGCUGCAAGGCCCCAUUCCAUUGAUGGCAGGGUAGUUGAGCCAAAACGUGCUGUAGCAAGAGAGGAGUCUGGAAAACCAGGAGCCCAUGUGACUGUGAAGAAGCUGUUUGUUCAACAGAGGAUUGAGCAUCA,0.212
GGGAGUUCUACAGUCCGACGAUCAGCAAGGUGGUACAGAAGUUGGUCCUGCCCUUUGGGAGGUUGAACUACAUGCCCCUGGAGCAGCAAUUUAUGCCCUGCCUUGAGAGGAUCCUGGCUCGGGAAGCAGGGGUGGCACCCUUGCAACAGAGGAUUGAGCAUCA,0.102
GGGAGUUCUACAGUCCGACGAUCGGGUCAGCUGCCGCCACUUCUAAUCCUCAUCAUGACAACGUCAGGUAUGGCAUUUCAAACCUAGAUGCAGCCAUUGAAGGAGCUUCAGAUGACAUGACUGUGGUAGAUGCAGCUUCAUUACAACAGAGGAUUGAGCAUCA,0.149
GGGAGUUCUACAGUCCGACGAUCUCCUUCCCACAUCACAGGGCUACCUUGAGACUUUCUGAGAAGUUUAUUCUUCUCCUUAUUCUUAGUGCCUUCAUCACUCUGUGUUUUGGGGCAUUCUUUUUCCUUCCAGACUCUUCAAAACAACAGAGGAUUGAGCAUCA,0.407
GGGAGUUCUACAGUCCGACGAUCGGACGGGCACAGCUGGCGUGACCACCAUGAGUCUGGGAGCACCUCCCACUAUGUCAAACUUUAGCCCUUUGACUAUUCCUCCUGCUAGCGUGAAGCAGCCUCAACAGAGACCAACCGAUACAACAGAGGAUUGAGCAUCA,0.229
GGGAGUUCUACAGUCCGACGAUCCUCUUUGAUCAGGCAUAUUUGAUGAGGCCUUCUAUAAUAUUUUUUGAUGAAAUAGAUGGCUUAGCUCCUGUUCGUUCUAGUAGACAAGAUCAGAUCCACAGCUCUAUAGUGUCAACCCUCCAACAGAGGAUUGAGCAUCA,0.349

# Some of these lines once more (series 4):
Oligonucleotide,bound/input enrichment [ratio]
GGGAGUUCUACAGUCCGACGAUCCCCCCCCCCCCCCCGGCGUCUGGCGACCCAGCGUGGAGCGAGGCCCCGCCGGGGGCGGCCAUGCGGCGGUGACAGGAGCACGGCCGAGACGCACGGGCCCCCCUCGCCCUCUCACCUCCACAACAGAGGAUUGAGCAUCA,1.32
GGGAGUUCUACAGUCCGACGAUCGCUGCCAUGGCUGCAAGGCCCCAUUCCAUUGAUGGCAGGGUAGUUGAGCCAAAACGUGCUGUAGCAAGAGAGGAGUCUGGAAAACCAGGAGCCCAUGUGACUGUGAAGAAGCUGUUUGUUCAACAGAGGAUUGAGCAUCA,0.212
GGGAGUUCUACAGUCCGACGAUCUCCUUCCCACAUCACAGGGCUACCUUGAGACUUUCUGAGAAGUUUAUUCUUCUCCUUAUUCUUAGUGCCUUCAUCACUCUGUGUUUUGGGGCAUUCUUUUUCCUUCCAGACUCUUCAAAACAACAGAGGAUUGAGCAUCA,0.407
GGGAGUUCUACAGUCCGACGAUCGGGCCCUGGAAGCUGACGGCGUCCAAGACCCACAUCAUGAAGUCGGCGGAUGUGGAGAAAUUAGCCGAUGAAUUACAUAUGCCAUCUCUCCCUGAAAUGAUGUUUGGAGACAACGUUUUACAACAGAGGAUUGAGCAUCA,0.183
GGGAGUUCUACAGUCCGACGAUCGGACGGGCACAGCUGGCGUGACCACCAUGAGUCUGGGAGCACCUCCCACUAUGUCAAACUUUAGCCCUUUGACUAUUCCUCCUGCUAGCGUGAAGCAGCCUCAACAGAGACCAACCGAUACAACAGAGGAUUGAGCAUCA,0.229
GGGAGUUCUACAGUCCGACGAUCUCCGAAUGAUCGAGUUGUGGCGGGCUUUGAGAUGUCAGAGGAUUUAGCAAAGCAGCUGGCAAGCUACAAAGCUCAGCUCCAGCAAGUUGAAGCUGCAUUAUCUGGAAAUGGAGAAAAUGACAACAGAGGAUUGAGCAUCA,0.241
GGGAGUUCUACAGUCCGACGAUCAGCAAGGUGGUACAGAAGUUGGUCCUGCCCUUUGGGAGGUUGAACUACAUGCCCCUGGAGCAGCAAUUUAUGCCCUGCCUUGAGAGGAUCCUGGCUCGGGAAGCAGGGGUGGCACCCUUGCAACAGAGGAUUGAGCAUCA,0.102
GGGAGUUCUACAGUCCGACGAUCCCAAGUGGACUGUUUCUGGCCUCGAGUCCGCUGCUGCCCAGCAUACACUUCUGGAGCAGCCUUAGUCCUGUCGCCCCACUGAGUCCUGCCAGGCUGCAAGGGCCGAACACACUUUUCCAGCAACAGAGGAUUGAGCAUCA,0.164
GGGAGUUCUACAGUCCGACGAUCCUCUUUGAUCAGGCAUAUUUGAUGAGGCCUUCUAUAAUAUUUUUUGAUGAAAUAGAUGGCUUAGCUCCUGUUCGUUCUAGUAGACAAGAUCAGAUCCACAGCUCUAUAGUGUCAACCCUCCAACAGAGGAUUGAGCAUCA,0.349
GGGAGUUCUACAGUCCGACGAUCCCUUGUUCACUGGAUUGUCUGGGGUGACUUGGGCUCAUAUCCACAAUAUUUGGUAUACGGUAGUAGGUUGGUGGGGGUGGGGGUGGGGAGCUAGGAUAUAGGGCAGGGAUACAUACAGUUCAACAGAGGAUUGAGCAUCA,25.8
